# Measurements gathered from unrelated publications.
# “And” joins repeats or separate records; there may be more than shown. Numbers after ± are the reported error.
SMILES,test,system,conditions,how to read,measurement,value
Cc1n[nH]c2ccc(-c3cc(OC[C@@H](N)Cc4ccccc4)cnc3-c3ccoc3)cc12,"kinase binding, competitor, MIB/MS competition, measured: CEK1",Candida albicans cell lysate,100 nM,baseline: DMSO,log2 fold change,-0.256
Cn1cc(Nc2nccc(-c3ccc4c(c3)CN(C3COC3)CC[C@H]4NC(=O)c3cn(C(C)(C)C)nn3)n2)cn1,measured: TNFR1 signalling,"mouse splenic B cells, mouse","30 mg/kg, IgD-activated B cells in vivo","baseline: vehicle, direction not given",pathway activation z-score,1.39
N#Cc1ccc2c(-c3ccncc3)c(-c3ccc(F)cc3)nn2c1,"kinase binding, competitor, MIB/MS competition, measured: NIK1",Candida albicans cell lysate,1 µM,baseline: DMSO,log2 fold change,-0.411
CCCCc1nc2c(N)nc3ccccc3c2n1Cc1ccc(N)cc1,"CD86 expression, flow cytometry","CD14+ myeloid cells in PBMC, human",100 or 1000 nM,,CD86 induction,increased
CC[C@@H]1[C@H](F)C(=O)N[C@@H]1COc1nccc2cc(C(N)=O)c(OC)cc12,"ATP-site probe binding, ActivX profiling, measured: PCTAIRE2, PCTAIRE3",THP-1 cell lysate,"0.01 mM, Lys1 site",,inhibition,16.3%
COc1cc(-c2ccccc2)ncc1C(=O)Nc1ccc2c(=O)[nH]c(-c3ccc(C(C)(C)O)cc3)nc2c1,"RNA-seq GSEA, measured: HALLMARK_MYC_TARGETS_V2","organoids, small intestinal, Apc Q1405X, mouse","dose not given, wild-type organoids","baseline: DMSO, direction not given",normalized enrichment score,-1
CC1(C)C=C(CNc2ccc3c(c2)Cc2cc(Br)ccc2-3)C(C)(C)N1[O],T2 and T2*-weighted MRI,wild-type mouse coronal brain sections,concentration not given,baseline: untreated sections,MRI contrast,no effect
NC1CS(=O)(=O)c2ccccc21 (centres unmarked),"CoA-CPM signal reduction, CPM fluorescence thiol",cell-free biochemical,"assay interference counter-screen, with: CoA replacing acetyl-CoA",,IC50,> 125 µM
C[C@H]1C[C@H]2CSC(N)=N[C@@]2(c2nc(NC(=O)c3ccc(OC(F)F)cn3)cs2)CO1,measured: Aβ1-40,"healthy adults, plasma","15 mg once daily, day 14",baseline: placebo,percent change from baseline,-68%
OC(CCN1CCCCC1)(c1ccccc1)C1CC2C=CC1C2 (centres unmarked),resting-state EEG,healthy elderly humans,"oral, 2 mg, eyes open, LS mean",baseline: baseline,change in EEG Beta2-power Pz-O2,5.7%
CSCCNc1nc(SCCC(F)(F)F)nc2c1ncn2[C@@H]1O[C@H](COP(=O)(O)OP(=O)(O)C(Cl)(Cl)P(=O)(O)O)[C@@H](O)[C@H]1O,"platelet aggregation, light transmission aggregometry","human patients, platelet-rich plasma","dose not given, 15 min, aggregation above 46%, with: ADP 5 µM",,patients with high residual reactivity,60%
C=CCn1c(=O)c2cnc(Nc3ccc(N4CCN(C)CC4)cc3)nc2n1-c1ccc2c(n1)[C@@](O)(CC)CC2,,"AN3-CA xenograft, BALB/c nude mice","oral, 80 mg/kg, day 12, once daily x 15",,tumour volume difference,926 ± 50.2 mm3
CN[C@@H]1COc2c(S(=O)(=O)NC(=O)Nc3c4c(cc5c3CCC5)CCC4)cnn2C1,measured: IL-18,"human participants, whole blood ex vivo","900 mg twice daily, multiple doses, 4 h, IL-18, circulating, adjusted for, with: LPS/ATP",baseline: baseline,inhibition,100%
CCCC(CCC)C(=O)Oc1cccc(C(O)CCN)c1.O=CO (centres unmarked),OCT at 500 µm from nerve head,"Abca4-/-Rdh8-/- mice, photic damage","oral, 20 mg/kg, 7 days, with: 10,000 lx light, 30 min",,ONL thickness,31 µm and 37.6 µm and 30.3 µm and 11.1 µm and 10.7 µm and 36.9 µm
O=C(Nc1nc(-c2ccccc2)ns1)c1cccs1,"CoA-CPM signal reduction, CPM fluorescence thiol",cell-free biochemical,"assay interference counter-screen, with: CoA replacing acetyl-CoA",,IC50,> 125 µM
CCCCOc1nc(N)c2c(n1)N(Cc1cccc(CN3CCCC3)c1)CC(=O)N2,,"human, blood","dose not given, 12 h, VOR",,TLR7 mRNA level,increased
[Cl-].[Cl-].[Ru+2].c1cnc2c(c1)ccc1cccnc12.c1cnc2c(c1)ccc1cccnc12.c1csc(-c2nc3c4cccnc4c4ncccc4c3[nH]2)c1,,air-saturated acetonitrile,,baseline: Ru(bpy)3(PF6)2,singlet oxygen quantum yield,0.62
Cc1noc(C)c1-c1cc(C(O)(c2ccccn2)c2ccccn2)c2nc(C3CC3)[nH]c2c1,measured: HEXIM1 expression,"human, peripheral blood","6 mg, day 1, 1604 study",,maximum induction,40%
Fc1ccc(Nc2nc(-c3ccccc3F)no2)cc1,"CoA-CPM signal reduction, CPM fluorescence thiol",cell-free biochemical,"assay interference counter-screen, with: CoA replacing acetyl-CoA",,IC50,> 125 µM
O=C(O)CNC(=O)Cc1ccccc1,,"ventricular cardiomyocytes, C57BL/6 mouse","dose not given, 0.708 s",,sarcomere length,1.72 µm
CO[C@H]1C[C@@H]2CC[C@@H](C)[C@@](O)(O2)C(=O)C(=O)N2CCCC[C@H]2C(=O)O[C@H]([C@H](C)C[C@@H]2CC[C@@H](O)[C@H](OC)C2)CC(=O)[C@H](C)/C=C(\C)[C@@H](O)[C@@H](OC)C(=O)[C@H](C)C[C@H](C)/C=C/C=C/C=C/1C,,"healthy adult horses, blood","intravenous, 0.06 mg/kg, 90 min, oral glucose test 4 h post-dose",,blood glucose concentration,153 mg/dL
CN(C)C(=O)c1cc2cnc(Nc3ccc(N4CCNCC4)cn3)nc2n1C1CCCC1,"RNA-seq GSEA, measured: HALLMARK_ESTROGEN_RESPONSE_LATE gene set",MB002 tumour,concentration not given,"baseline: vehicle, direction not given",enrichment score,0.381
CC(C)c1ccc(S(=O)(=O)Nc2ccc(-c3nc4ccccc4s3)c(Cl)c2)cc1,"CoA-CPM signal reduction, CPM fluorescence thiol",cell-free biochemical,"assay interference counter-screen, with: CoA replacing acetyl-CoA",,IC50,> 125 µM
O=C(O)CCC(=O)O.[2H]C([2H])([2H])Oc1cc(C)c2[nH]ccc2c1CN1CC[C@@H](C2CC2)C[C@H]1c1ccc(C(=O)O)cc1,"EIA, measured: complement fragment Bb","human, plasma","300 mg once daily, multiple ascending dose",,maximum inhibition,43.6%
NC1(C(=O)N[C@@H](CCO)c2ccc(Cl)cc2)CCN(c2nc[nH]c3nccc2-3)CC1,,human mCRPC patients,"dose not given, with: enzalutamide",,PSA non-response rate,81.8%
NC(=O)c1cnc2[nH]ccc2c1N[C@@H]1[C@@H]2CC3C[C@H]1C[C@@](O)(C3)C2,"CD4+ central memory T cells, flow cytometry","Japanese humans, peripheral blood",20 mg single dose,baseline: baseline,percent change,0.02%
O=S1(=O)CC(O)c2ccccc21 (centres unmarked),"CoA-CPM signal reduction, CPM fluorescence thiol",cell-free biochemical,"assay interference counter-screen, with: CoA replacing acetyl-CoA",,IC50,> 125 µM
COc1ccccc1[C@H](Cn1c(=O)n(C(C)(C)C(=O)O)c(=O)c2c(C)c(-c3ncco3)sc21)OC1CCOCC1,"[1-13C]acetate infusion, isotopomer analysis","overweight or obese healthy men, plasma VLDL-TG palmitate","oral, 50 mg single dose, 8 h post-dose, with: oral fructose",,fractional hepatic DNL,12 % new palmitate
CO[C@H]1CC[C@H](N2C(=O)CNc3ncc(-c4ccc(C(C)(C)O)nc4)nc32)CC1,flow cytometry,"stimulated T cells, human, blood","30 mg single dose, 24 h, mean",baseline: baseline,p4EBP1 change from baseline,-36.9%
CC1(C)CCC(CN2CCN(c3ccc(C(=O)NS(=O)(=O)c4ccc(NCC5CCOCC5)c([N+](=O)[O-])c4)c(Oc4cnc5[nH]ccc5c4)c3)CC2)=C(c2ccc(Cl)cc2)C1,"cell kill, PI exclusion flow cytometry","neoplastic B cells, human, thawed lymph node",24 h,,EC50,1240 nM
Cl.N[C@@H](Cc1ccc(Oc2nnc(-c3ccccc3)nn2)cc1)C(=O)O,iEDDA cycloaddition,aqueous DMSO 25 %,"37 °C, with: TCO-OH 7.2 mM",,kobs,0.55 s⁻¹
C[C@H](Oc1ccc(Br)cc1-c1ccon1)C(=O)O,last response peak,"human, tibialis anterior muscle","100 mg, 15 Hz, single ascending dose",,difference from placebo,8.5%
CC(C)NCC(O)c1ccc(O)c(O)c1 (centres unmarked),,"ventricular cardiomyocytes, C57BL/6 mouse","dose not given, 0.748 s",,sarcomere length,1.72 µm
CC(C)C[C@H](NC(=O)[C@H](CC(C)C)NC(=O)[C@H](Cc1c[nH]c2ccccc12)NC(=O)[C@H](CCC(=O)O)NC(=O)[C@@H](NC(=O)[C@H](Cc1ccccc1)NC(=O)[C@H](CCC(=O)O)NC(=O)[C@H](CCCCNC(=O)COCCOCCNC(=O)COCCOCCNC(=O)CC[C@H](NC(=O)CCCCCCCCCCCCCCCCCCC(=O)O)C(=O)O)NC(=O)[C@H](C)NC(=O)[C@H](CCCCN)NC(=O)[C@H](CCCCN)NC(=O)[C@H](CCC(=O)O)NC(=O)[C@H](CC(=O)O)NC(=O)[C@H](CC(C)C)NC(=O)[C@H](Cc1ccc(O)cc1)NC(=O)[C@H](CCCCN)NC(=O)[C@H](CO)NC(=O)[C@H](Cc1ccc(O)cc1)NC(=O)[C@H](CC(=O)O)NC(=O)[C@H](CO)NC(=O)[C@@H](NC(=O)[C@H](Cc1ccccc1)NC(=O)[C@@H](NC(=O)CNC(=O)[C@H](CCC(N)=O)NC(=O)C(C)(C)NC(=O)[C@@H](N)Cc1c[nH]cn1)[C@@H](C)O)[C@@H](C)O)C(C)C)C(=O)N[C@@H](CCC(=O)O)C(=O)NCC(=O)NCC(=O)N1CCC[C@H]1C(=O)N[C@@H](CO)C(=O)N[C@@H](CO)C(=O)NCC(N)=O,measured: glucagon,"human, fasting plasma","concentration not given, day 134, LS mean",baseline: baseline,change from baseline,-14.5 pmol/L
C[C@@H](NC(=O)N1C(=O)[C@H](Cc2ccnc(N)c2)[C@H]1C(=O)O)C1CCCCC1,,human,"iv infusion, 1.0 mg/kg/h, 24 h",baseline: baseline,time to aPTT Emax,24 h

# A few entries again:
SMILES,test,system,conditions,how to read,measurement,value
COc1ccccc1[C@H](Cn1c(=O)n(C(C)(C)C(=O)O)c(=O)c2c(C)c(-c3ncco3)sc21)OC1CCOCC1,"[1-13C]acetate infusion, isotopomer analysis","overweight or obese healthy men, plasma VLDL-TG palmitate","oral, 50 mg single dose, 8 h post-dose, with: oral fructose",,fractional hepatic DNL,12 % new palmitate
CO[C@H]1CC[C@H](N2C(=O)CNc3ncc(-c4ccc(C(C)(C)O)nc4)nc32)CC1,flow cytometry,"stimulated T cells, human, blood","30 mg single dose, 24 h, mean",baseline: baseline,p4EBP1 change from baseline,-36.9%
CC1(C)CCC(CN2CCN(c3ccc(C(=O)NS(=O)(=O)c4ccc(NCC5CCOCC5)c([N+](=O)[O-])c4)c(Oc4cnc5[nH]ccc5c4)c3)CC2)=C(c2ccc(Cl)cc2)C1,"cell kill, PI exclusion flow cytometry","neoplastic B cells, human, thawed lymph node",24 h,,EC50,1240 nM
